Results of several laboratories.
Each numbered part is a random draw from the data of one study; scales do not carry over between parts.
UniProt Q04759, sequence (whole entry, looked up): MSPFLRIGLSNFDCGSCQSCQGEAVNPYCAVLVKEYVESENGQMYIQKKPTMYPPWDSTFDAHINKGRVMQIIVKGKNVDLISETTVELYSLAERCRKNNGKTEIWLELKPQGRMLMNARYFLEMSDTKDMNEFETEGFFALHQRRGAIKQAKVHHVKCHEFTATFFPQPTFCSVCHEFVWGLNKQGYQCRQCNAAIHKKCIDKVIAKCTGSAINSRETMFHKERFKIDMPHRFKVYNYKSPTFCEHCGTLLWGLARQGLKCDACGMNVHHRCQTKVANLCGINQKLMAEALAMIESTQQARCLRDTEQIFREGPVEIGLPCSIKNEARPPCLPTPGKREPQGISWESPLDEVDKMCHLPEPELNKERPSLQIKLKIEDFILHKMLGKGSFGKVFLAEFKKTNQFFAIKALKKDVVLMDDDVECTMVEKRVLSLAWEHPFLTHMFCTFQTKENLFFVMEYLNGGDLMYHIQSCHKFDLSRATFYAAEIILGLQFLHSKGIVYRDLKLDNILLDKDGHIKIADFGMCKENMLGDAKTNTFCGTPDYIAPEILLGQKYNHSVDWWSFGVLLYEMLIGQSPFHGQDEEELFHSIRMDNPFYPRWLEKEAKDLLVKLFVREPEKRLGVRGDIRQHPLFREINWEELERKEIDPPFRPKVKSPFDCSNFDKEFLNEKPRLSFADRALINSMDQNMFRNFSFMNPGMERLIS
UniProt P37023, sequence (whole entry, looked up): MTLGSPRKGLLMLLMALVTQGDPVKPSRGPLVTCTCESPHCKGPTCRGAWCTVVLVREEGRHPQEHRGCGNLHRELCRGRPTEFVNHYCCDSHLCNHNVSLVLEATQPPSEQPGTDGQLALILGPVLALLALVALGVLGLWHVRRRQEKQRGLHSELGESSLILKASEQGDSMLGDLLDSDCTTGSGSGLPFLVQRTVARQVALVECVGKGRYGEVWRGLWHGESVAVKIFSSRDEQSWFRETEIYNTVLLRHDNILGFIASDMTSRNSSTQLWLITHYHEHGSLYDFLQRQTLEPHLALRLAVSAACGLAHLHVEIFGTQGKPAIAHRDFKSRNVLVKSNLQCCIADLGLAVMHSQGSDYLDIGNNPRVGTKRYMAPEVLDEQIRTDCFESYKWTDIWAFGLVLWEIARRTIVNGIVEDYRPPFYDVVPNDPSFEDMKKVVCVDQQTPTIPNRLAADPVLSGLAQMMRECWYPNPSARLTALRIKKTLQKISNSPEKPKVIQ
UniProt O00444, sequence (whole entry, looked up): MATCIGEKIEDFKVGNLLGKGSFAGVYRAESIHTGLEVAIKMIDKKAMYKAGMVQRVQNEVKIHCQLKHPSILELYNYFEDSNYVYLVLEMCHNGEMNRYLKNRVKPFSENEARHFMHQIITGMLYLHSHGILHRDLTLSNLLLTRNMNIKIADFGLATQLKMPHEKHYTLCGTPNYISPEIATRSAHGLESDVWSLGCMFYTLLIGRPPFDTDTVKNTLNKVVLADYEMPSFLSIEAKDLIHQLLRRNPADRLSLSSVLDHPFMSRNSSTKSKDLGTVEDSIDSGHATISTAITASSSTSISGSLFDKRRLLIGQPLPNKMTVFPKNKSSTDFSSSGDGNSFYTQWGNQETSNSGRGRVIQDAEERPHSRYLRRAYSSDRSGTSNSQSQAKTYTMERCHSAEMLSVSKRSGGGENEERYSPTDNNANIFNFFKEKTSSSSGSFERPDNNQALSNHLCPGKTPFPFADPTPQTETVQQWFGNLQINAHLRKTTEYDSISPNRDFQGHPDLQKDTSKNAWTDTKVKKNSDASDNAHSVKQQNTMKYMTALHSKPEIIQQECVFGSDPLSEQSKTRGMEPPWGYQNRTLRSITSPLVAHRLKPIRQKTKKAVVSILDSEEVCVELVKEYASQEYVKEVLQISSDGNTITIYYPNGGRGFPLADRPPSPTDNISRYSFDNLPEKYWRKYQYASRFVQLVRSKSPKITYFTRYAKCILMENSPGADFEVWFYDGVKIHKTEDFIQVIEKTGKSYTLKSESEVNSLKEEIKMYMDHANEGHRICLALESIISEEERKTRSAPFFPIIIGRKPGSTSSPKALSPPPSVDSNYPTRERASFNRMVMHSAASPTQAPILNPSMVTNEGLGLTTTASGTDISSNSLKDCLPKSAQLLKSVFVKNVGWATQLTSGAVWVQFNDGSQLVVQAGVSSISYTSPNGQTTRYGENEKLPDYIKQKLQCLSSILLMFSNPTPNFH
UniProt Q8N5S9, sequence (whole entry, looked up): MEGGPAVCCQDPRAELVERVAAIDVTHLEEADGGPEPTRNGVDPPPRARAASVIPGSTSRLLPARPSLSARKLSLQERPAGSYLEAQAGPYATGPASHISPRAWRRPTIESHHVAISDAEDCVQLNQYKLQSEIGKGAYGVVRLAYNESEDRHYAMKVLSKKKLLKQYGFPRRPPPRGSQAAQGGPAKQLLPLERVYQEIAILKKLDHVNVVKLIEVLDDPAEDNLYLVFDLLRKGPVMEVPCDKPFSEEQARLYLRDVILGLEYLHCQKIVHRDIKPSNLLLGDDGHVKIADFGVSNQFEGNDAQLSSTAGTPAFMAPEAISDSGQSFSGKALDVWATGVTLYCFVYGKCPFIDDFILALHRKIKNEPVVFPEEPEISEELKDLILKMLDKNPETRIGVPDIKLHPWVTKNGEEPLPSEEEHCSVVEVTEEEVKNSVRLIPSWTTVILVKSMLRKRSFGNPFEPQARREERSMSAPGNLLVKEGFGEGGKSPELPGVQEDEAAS
UniProt P16234, sequence (whole entry, looked up): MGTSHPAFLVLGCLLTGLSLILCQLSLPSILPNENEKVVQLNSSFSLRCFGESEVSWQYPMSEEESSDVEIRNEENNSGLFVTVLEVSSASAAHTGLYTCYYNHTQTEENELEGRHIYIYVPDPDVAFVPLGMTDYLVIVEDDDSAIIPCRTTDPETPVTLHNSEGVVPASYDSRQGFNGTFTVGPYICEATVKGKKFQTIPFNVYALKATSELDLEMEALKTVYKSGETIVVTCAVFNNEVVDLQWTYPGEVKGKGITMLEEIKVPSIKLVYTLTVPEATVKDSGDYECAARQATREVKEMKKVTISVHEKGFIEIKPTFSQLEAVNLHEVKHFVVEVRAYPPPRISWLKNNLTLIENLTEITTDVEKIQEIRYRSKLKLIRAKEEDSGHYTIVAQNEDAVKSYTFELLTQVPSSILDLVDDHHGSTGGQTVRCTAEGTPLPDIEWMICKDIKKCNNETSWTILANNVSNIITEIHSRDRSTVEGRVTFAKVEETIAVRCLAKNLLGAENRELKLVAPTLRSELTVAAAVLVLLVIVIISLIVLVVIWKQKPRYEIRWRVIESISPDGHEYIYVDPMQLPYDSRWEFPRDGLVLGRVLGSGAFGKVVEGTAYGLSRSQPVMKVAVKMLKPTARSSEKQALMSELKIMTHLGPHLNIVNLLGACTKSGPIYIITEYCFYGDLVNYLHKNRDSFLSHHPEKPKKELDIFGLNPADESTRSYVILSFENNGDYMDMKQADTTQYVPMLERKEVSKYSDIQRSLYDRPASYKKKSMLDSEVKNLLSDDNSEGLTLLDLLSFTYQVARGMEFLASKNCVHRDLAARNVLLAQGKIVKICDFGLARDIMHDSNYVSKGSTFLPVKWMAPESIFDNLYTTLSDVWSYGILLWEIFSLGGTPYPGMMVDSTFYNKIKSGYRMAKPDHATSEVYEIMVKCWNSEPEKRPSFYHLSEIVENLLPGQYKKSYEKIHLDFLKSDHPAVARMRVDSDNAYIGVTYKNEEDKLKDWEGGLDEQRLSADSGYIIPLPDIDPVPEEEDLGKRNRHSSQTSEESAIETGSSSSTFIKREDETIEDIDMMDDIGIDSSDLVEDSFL
UniProt P23458, sequence (whole entry, looked up): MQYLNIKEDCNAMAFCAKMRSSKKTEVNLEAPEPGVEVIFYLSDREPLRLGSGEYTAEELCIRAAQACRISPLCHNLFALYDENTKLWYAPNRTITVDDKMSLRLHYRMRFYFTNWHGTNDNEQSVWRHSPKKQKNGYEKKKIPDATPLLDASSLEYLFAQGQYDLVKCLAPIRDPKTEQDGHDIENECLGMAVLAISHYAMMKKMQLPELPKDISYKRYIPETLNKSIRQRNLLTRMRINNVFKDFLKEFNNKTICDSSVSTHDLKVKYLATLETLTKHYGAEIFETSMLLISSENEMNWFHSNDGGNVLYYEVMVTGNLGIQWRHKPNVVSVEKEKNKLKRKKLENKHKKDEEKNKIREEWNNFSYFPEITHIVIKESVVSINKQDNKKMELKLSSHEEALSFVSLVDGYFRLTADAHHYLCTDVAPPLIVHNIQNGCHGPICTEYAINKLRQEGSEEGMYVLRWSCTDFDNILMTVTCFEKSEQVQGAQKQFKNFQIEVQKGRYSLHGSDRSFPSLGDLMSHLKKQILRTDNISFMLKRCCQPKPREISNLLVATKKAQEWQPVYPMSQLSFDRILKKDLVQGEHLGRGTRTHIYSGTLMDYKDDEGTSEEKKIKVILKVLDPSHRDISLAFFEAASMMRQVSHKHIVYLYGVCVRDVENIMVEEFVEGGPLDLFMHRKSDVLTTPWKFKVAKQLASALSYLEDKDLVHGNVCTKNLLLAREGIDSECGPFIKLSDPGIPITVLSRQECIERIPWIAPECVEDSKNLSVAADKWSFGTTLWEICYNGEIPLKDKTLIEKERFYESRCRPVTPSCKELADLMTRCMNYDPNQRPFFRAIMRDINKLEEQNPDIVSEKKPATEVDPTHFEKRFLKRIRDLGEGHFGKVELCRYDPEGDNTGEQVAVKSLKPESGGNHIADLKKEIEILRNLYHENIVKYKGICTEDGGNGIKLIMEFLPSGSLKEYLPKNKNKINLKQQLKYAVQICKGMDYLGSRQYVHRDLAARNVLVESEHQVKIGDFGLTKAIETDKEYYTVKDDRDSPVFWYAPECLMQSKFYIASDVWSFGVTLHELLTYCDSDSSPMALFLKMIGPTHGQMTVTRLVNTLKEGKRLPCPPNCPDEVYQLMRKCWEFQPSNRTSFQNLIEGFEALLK

Sample 1
Target: Histone acetyltransferase KAT6A, winged helix 2, GST fusion (KAT6A, Homo sapiens, UniProt Q92794, residues 85-181)
Method: protein binding microarray
Molecule type: double-stranded DNA, one strand shown
Matrix: in vitro
Tested at: not given
Setting: 8-mer, flanks averaged, mean of 2 arrays, mostly near background
Baseline: not given
Reading: higher = stronger binding
Construct (chain): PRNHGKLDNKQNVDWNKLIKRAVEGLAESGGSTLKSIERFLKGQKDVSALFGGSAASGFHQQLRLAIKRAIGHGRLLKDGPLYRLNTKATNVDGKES
Oligonucleotide | E-score
ATCCGAAG | -0.0786
CCTGGACA | -0.0424
CTGTTAAG | -0.0281
AATACGCC | -0.0303
ACCTTACG | -0.00069
ACTTGACT | -0.233
GACCGACA | -0.0657
ACGGAATC | -0.0879

Sample 2
SMILES: C[C@@]1(Cc2ccc(C#N)cc2)C(=O)N(c2cc(Cl)cc(Cl)c2)c2ncc(C(=O)NC3(c4nc(C5CCC5)no4)CC3)n21
Observed: cell-free assay
Method: competition with immobilised ligand
Tested at: 1 µM
target | remaining binding
ACVRL1 (Homo sapiens, UniProt P37023) | 100%
PLK4 (Homo sapiens, UniProt O00444) | 90%
PDGFRA (Homo sapiens, UniProt P16234) | 100%
CDK18 (Homo sapiens, UniProt Q07002) | 100%

Sample 3
Structure (SMILES): CCN(CC)C(=O)c1ccc(Nc2nc(OCC3CCCCC3)c3[nH]cnc3n2)cc1
Observed: enzyme activity
Action: inhibitor
Tested at: 0.5 µM
Baseline: control
target | remaining activity [%]
PRKCQ (Homo sapiens, UniProt Q04759) | 97.9
CAMKK1 (Homo sapiens, UniProt Q8N5S9) | 96.8
JAK1 (Homo sapiens, UniProt P23458) | 51.8

Further values, each from its own experiment
Compound | matrix | measurement | value
CCC[C@H]1NC(=O)CSC[C@@H](C(=O)OCC)N(C)C(=O)[C@H](CC(C)C)NC(=O)[C@H](C)N(C)C(=O)[C@@H](CC(C)C)NC(=O)[C@H](C)N(C)C(=O)[C@H]2CCCN2C(=O)[C@@H](CC(C)C)NC(=O)CN(C)C1=O | hydrocarbon/water | logD | 0.499

Excerpt of the above (sample 3):
target | remaining activity [%]
PRKCQ (Homo sapiens, UniProt Q04759) | 97.9
